# Published values from different studies.
# Every numbered part comes from another study and shows a few of its results, in no order. Changes are numbered by the printed parent chain.

# Sample 1 — method: protein-binding microarray; form: double-stranded DNA, one strand shown; matrix: in vitro; tested at: 2200 nM top; setting: 60-bp whole probe; added: salmon DNA 0.4 mg/ml; relative to: random background probes; reading: higher = stronger binding; shared flanks, not repeated: GCCTAGCAC … GTCTTGATTCGCTTGACGCTGCTG
# Target: Interferon regulatory factor 7, full length, phosphomimetic (IRF7, Homo sapiens, UniProt Q92985, residues 1-503, S471D/S472D/S475D/S476D/S477D/S483D/S484D/S487D)
# Residues (chain): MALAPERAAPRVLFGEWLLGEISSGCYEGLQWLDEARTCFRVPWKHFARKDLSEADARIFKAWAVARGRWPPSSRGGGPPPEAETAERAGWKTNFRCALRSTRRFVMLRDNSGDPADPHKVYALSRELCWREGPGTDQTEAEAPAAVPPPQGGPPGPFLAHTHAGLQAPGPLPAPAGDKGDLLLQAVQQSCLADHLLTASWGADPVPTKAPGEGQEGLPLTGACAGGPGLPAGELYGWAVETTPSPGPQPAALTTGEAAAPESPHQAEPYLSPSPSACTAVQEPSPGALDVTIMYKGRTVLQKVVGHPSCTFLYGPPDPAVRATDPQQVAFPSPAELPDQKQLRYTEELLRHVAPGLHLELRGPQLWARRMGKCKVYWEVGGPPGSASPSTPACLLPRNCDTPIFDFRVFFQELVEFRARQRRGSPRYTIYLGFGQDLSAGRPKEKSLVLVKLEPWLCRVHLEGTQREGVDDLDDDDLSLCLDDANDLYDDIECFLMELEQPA
Strand,fitted relative affinity
GACGGTCTCCGACTGCTGACGTGCTAG,-0.355 z-score
TACGATATCGGGACTGGAGACGTGCTA,0.233 z-score
TCACTCACCTAGTTTCATACTGTGCTA,2.59 z-score
TTAGGTTTCGACTTTCGGTTTGTGCTA,15.3 z-score
TTGGGTTCCCTTTTCCTTTAGTGCTAG,2.81 z-score
TCGTATGTGACCTTTTTAAGAGTGCTA,0.926 z-score
TCATTATGCTCTTTCTAACTGTGCTAG,1.88 z-score
TTAGGTTTCGGTTTTCGGTTAGTGCTA,13.7 z-score

# Sample 2 — method: RNA Bind-n-Seq; form: RNA; matrix: in vitro; tested at: 365 nM; relative to: no-protein control; reading: higher = stronger binding
# Target: RNA binding protein fox-1 homolog 2, RRM domain, GST-SBP tag (RBFOX2, Homo sapiens, UniProt O43251-10, residues 100-194)
# Setting: natural RNA segment, single round, ends assumed
# Target sequence (chain): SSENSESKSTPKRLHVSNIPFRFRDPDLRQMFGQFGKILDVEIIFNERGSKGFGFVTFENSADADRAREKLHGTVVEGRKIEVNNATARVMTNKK
Strand,RBNS enrichment (R)
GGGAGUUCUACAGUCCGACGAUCAUGCCUUUGCAGUGGUCUCCCGGGCAUUGGGCAGGGCCUAGCCUUUUGCAGCCCCCAGAGGACCUUGCCUGCAUAAAGCACUCAGAAGGGUUAGCCACCUGGUGAUUUUGUGGAAUUCUCGGGUGCCAA,0.41
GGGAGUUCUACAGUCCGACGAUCUUAUUUUAAAAGUUCCUGCUGUUCUUUACAAAUCCAGUUCUGAGGUGCAGGCCACCAACAGCAGCGUCUACCAGGUUUUGUGCCUUAACAGUCUCAAGGGCUGAAGCCCAUGGAAUUCUCGGGUGCCAA,0.387
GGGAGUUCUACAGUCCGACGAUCAGAAGUGUCACACGGAGGCUUCUGUGCCAAAGACUGCCUUGUAGAGGUCUCAUCACCUCACACUUCUUGACUUCACAAAAUUGUGGCCCUGAGAUCAGUACUCCUCUCUUUGGAAUUCUCGGGUGCCAA,0.415
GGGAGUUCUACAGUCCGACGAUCACCAAAAUGUUAUCUCCACUUCCCCCUCACCCGUAGAGGAUCCUGGCCACAGACAGUUUCAAGUAGUGUCAGAUUUUUGUUGCUUGGGCGGCUGUUGGUAGAGUGGGCAGUGGAAUUCUCGGGUGCCAA,0.471
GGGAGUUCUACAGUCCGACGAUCACUGAGCGUAUUUGAAUUUUUUCAUGCAAUUUUUCUAGAGCAAUAAUCAGUGGUGCUUUUGUGCCUAGGUUUUAUGUGAUUUUAAUGAAAUAUGGAUAGUUGUGGCCACCUGGAAUUCUCGGGUGCCAA,0.433
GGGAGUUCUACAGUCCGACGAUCCUGGCUCCGCUGACCUACGAUAAUUAUACGACGGAGACCUACGCAAGCGACCUGCUGCCUUCCUUCCCACUGCUUGUCUUCAGUGUGCCCGGCUGGGCAGGGGUGCGGUGUGGAAUUCUCGGGUGCCAA,0.456
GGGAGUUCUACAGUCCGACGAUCUCAUUAUAUUUCAUGUUUGACCAUUUGACUAACCAGCAGGCUUGGAGUUGAAUAGCUUUUGCUUUGCAACACUAAUCCUCACACUUAAAAUGAUUCCAUUAAUCUUACUCUGGAAUUCUCGGGUGCCAA,0.323
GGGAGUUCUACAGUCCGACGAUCCCACAGGCUCGUCUGUGUCCCUGCCACUCUGAGUUAUCCAGAAACCACCACCUACAAAUGAGGGGACUCAUCUAGAAGACCUCUAAGGUCCCCUUUUGGCUCUGAGGGGUUGGAAUUCUCGGGUGCCAA,0.348
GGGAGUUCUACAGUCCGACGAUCAGUAUAUAAAAAUAAACAAAAAGUCCUUGAAGCUUUACAGUUAAUUUAGGUAUGGGCUUACUGGACUCCAACAUCUUUUGUACUCUUUCAUGCUUAUAUAGAAUCUGAGUUGGAAUUCUCGGGUGCCAA,0.894

# Sample 3 — method: DHFR PCA, deep sequencing; matrix: yeast; added: (+)-ABA 0.032 µM; relative to: wild-type fitted maximum; reading: higher = stronger binding
# Target: ABI1, truncated, D143A, DHFR fusion (Arabidopsis thaliana)
# Setting: methotrexate growth selection, single substitutions
# Parent: PYL1, truncated, DHFR fusion (Arabidopsis thaliana); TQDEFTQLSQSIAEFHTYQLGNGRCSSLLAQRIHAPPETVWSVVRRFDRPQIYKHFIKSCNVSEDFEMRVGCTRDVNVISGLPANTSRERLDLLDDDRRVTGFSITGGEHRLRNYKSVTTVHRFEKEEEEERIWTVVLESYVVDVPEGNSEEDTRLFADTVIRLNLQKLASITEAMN; partner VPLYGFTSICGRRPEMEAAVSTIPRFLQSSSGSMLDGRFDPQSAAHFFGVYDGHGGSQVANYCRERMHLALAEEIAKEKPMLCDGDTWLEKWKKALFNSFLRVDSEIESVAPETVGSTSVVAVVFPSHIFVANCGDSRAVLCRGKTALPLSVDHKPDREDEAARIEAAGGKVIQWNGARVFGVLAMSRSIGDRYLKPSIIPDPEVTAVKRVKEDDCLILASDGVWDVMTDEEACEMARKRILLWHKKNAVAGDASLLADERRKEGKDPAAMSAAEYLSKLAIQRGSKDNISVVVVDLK
Substitution,relative binding score [%]
V137Y,3.4
F103K,-3.82
R163C,-4.45
G81W,4.01
E109M,0.366

# Other studies, line by line
Substance,target,test,test system,conditions,how to read,endpoint,result
"PhoQ, residues 284 288 289 292 302 303 QWGLFV","PhoP, residues 12 14 15 18 19 NQGLL (Escherichia coli, UniProt P23836)","Sort-seq, measured: YFP reporter",E. coli,"PhoQ-PhoP variant library, added: 10 µM Mg2+","relative to: high Mg2+ state, higher = stronger signaling",fold induction,2.21

# For quick reference, copied from above (sample 2):
Strand,RBNS enrichment (R)
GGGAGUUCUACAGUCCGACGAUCUUAUUUUAAAAGUUCCUGCUGUUCUUUACAAAUCCAGUUCUGAGGUGCAGGCCACCAACAGCAGCGUCUACCAGGUUUUGUGCCUUAACAGUCUCAAGGGCUGAAGCCCAUGGAAUUCUCGGGUGCCAA,0.387
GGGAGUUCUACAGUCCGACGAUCAGAAGUGUCACACGGAGGCUUCUGUGCCAAAGACUGCCUUGUAGAGGUCUCAUCACCUCACACUUCUUGACUUCACAAAAUUGUGGCCCUGAGAUCAGUACUCCUCUCUUUGGAAUUCUCGGGUGCCAA,0.415
